# Published values pooled from the literature.
# A part holds a random share of what one study measured.
# UniProt Q8N568, sequence (whole entry, looked up): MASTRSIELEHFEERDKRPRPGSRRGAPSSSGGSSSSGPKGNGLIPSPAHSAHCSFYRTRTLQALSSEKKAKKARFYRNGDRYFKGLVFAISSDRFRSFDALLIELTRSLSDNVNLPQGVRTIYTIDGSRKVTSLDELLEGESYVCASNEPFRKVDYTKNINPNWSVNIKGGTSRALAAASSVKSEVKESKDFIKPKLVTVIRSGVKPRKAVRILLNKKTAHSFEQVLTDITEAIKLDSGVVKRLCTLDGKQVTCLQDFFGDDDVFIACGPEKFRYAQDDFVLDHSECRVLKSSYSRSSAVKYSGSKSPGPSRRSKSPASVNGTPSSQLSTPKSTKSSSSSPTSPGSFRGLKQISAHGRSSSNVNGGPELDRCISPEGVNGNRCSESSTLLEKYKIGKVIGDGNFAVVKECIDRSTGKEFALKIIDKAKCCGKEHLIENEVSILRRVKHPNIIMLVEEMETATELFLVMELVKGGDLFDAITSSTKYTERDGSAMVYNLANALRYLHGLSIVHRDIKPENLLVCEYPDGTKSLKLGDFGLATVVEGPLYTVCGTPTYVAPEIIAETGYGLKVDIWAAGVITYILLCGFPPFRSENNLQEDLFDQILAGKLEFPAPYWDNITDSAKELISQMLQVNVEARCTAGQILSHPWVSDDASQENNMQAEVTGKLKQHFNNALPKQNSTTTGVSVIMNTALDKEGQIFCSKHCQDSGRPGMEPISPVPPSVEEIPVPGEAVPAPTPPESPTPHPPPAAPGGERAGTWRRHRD
# UniProt P35968, sequence (whole entry, looked up): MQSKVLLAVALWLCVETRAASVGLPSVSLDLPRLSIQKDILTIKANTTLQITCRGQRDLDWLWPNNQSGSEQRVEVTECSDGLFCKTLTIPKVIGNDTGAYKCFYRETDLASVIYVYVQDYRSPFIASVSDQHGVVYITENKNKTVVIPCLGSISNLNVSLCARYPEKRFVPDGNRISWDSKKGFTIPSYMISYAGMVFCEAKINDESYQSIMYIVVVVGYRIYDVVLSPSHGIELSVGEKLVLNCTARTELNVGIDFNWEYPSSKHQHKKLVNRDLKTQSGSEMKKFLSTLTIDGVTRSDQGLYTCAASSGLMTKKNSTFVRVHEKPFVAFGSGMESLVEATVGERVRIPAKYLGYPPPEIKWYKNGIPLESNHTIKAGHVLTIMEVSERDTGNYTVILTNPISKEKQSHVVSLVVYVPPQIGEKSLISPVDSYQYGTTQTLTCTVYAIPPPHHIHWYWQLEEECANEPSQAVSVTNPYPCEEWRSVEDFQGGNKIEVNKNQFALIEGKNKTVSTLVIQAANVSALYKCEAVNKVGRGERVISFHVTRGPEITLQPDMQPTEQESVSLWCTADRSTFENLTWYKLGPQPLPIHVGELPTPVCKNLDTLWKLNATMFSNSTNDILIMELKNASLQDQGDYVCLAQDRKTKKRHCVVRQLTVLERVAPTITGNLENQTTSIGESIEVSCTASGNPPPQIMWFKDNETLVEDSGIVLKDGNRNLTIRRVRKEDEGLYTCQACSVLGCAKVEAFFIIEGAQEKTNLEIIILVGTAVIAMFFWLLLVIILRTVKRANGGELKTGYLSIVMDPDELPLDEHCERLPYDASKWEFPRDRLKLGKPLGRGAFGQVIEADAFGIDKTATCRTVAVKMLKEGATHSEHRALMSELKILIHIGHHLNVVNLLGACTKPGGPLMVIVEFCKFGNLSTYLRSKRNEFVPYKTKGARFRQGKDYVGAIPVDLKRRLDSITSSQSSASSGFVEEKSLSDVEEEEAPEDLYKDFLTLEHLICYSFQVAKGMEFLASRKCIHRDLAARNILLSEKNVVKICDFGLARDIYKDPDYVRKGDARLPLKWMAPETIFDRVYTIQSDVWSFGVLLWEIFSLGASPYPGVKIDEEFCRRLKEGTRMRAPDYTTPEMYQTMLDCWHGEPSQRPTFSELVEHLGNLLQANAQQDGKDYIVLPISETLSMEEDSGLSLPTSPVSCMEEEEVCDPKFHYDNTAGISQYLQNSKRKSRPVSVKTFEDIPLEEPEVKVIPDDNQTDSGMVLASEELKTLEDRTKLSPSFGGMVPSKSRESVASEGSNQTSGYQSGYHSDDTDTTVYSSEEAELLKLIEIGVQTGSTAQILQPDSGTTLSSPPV
# UniProt P32298, sequence (whole entry, looked up): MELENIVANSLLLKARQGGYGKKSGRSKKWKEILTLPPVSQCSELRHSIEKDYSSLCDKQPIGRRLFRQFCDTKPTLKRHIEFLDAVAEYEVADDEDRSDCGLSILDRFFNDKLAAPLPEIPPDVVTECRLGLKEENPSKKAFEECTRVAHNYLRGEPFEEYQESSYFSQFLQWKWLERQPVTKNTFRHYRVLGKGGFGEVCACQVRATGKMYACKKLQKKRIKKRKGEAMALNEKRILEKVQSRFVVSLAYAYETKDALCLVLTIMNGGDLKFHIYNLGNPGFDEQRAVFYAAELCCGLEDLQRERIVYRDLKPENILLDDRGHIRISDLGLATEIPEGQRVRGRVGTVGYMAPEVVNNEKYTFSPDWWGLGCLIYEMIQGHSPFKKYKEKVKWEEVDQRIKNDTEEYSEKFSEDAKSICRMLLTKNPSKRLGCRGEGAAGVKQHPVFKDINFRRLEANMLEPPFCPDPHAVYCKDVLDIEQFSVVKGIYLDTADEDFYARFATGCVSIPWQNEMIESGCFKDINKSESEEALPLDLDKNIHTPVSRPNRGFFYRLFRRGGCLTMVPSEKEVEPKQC
# UniProt Q02750, sequence (whole entry, looked up): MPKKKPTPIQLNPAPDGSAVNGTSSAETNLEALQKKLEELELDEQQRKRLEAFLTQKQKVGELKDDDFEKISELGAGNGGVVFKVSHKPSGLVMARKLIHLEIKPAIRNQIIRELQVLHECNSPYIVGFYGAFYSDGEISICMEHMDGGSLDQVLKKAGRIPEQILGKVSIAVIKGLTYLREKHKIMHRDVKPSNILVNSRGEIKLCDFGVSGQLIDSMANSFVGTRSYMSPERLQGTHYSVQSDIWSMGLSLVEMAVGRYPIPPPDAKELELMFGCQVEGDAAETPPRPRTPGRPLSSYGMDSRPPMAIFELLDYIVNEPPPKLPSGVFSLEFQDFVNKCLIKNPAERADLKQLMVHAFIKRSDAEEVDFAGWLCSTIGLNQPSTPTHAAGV
# UniProt Q16566, sequence (whole entry, looked up): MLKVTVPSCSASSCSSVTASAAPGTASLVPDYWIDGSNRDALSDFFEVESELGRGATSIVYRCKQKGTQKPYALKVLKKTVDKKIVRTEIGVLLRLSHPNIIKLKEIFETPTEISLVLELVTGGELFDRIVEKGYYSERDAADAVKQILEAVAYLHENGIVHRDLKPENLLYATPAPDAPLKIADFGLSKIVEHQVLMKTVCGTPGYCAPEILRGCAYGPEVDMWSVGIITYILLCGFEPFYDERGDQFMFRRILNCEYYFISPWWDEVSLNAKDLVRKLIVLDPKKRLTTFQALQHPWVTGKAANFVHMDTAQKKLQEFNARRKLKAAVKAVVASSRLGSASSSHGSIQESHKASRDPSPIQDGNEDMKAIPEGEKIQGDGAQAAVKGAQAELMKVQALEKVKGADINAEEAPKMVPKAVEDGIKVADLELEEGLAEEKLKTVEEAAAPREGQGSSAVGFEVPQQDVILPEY
# UniProt Q16832, sequence (whole entry, looked up): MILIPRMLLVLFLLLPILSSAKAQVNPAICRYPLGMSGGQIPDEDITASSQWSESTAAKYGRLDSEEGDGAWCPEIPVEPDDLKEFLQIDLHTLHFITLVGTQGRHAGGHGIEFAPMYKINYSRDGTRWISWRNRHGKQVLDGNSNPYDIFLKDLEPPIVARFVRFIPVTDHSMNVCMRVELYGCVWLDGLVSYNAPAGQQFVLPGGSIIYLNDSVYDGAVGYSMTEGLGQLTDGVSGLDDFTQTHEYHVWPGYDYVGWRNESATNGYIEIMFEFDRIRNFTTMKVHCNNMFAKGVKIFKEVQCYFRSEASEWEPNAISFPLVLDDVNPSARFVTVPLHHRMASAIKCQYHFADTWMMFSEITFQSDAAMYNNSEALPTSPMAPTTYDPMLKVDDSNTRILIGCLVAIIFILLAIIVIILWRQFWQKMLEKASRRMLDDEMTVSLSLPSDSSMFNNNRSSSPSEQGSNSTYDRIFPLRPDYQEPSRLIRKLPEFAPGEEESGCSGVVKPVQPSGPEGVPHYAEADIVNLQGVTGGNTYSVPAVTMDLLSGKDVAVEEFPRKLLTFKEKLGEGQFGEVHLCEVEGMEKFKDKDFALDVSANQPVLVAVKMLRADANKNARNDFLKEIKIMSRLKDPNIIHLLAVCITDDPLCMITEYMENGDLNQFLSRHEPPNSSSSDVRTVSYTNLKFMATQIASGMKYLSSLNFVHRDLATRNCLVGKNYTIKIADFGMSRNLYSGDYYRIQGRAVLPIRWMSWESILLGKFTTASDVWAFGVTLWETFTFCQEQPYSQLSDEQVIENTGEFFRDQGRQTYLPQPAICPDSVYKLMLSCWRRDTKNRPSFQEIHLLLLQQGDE
# UniProt P31751, sequence (whole entry, looked up): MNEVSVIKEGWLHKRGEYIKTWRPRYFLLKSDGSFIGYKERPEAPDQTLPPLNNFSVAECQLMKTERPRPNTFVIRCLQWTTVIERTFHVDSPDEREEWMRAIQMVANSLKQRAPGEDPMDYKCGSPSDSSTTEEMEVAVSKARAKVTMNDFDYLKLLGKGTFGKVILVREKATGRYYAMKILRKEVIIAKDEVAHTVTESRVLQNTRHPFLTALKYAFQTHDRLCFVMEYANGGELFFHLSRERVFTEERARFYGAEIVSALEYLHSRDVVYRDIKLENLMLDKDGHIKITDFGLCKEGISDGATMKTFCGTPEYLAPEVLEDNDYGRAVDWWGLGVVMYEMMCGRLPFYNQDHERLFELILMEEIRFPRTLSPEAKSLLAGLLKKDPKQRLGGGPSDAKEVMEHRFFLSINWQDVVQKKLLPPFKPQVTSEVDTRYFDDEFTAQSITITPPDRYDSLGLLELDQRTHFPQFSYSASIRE

# Series 1
# Structure (SMILES): Ic1cccc(CSc2nnc(-c3ccncc3)o2)c1
# Observed: enzyme activity
# Action: inhibitor
# Concentration: 0.5 µM
# Relative to: control
target,remaining activity [%]
"Hepatocyte growth factor receptor (MET, Homo sapiens, UniProt P08581)",88.7
"Vascular endothelial growth factor receptor 2 (KDR, Homo sapiens, UniProt P35968)",78.1
"Cyclin-dependent kinase 1, with cyclin A (CDK1, Homo sapiens, UniProt P06493)",99.8
"Rho-associated protein kinase 1 (ROCK1, Homo sapiens, UniProt Q13464)",88
"Serine/threonine-protein kinase Nek3 (NEK3, Homo sapiens, UniProt P51956)",86.9
"G protein-coupled receptor kinase 4 (GRK4, Homo sapiens, UniProt P32298)",99.8
"Calcium/calmodulin-dependent protein kinase type IV (CAMK4, Homo sapiens, UniProt Q16566)",91.6
"Serine/threonine-protein kinase MRCK beta (CDC42BPB, Homo sapiens, UniProt Q9Y5S2)",96.6
"Calcium/calmodulin-dependent protein kinase type 1B (PNCK, Homo sapiens, UniProt Q6P2M8)",101
"Serine/threonine-protein kinase PLK3 (PLK3, Homo sapiens, UniProt Q9H4B4)",96.1
"Serine/threonine-protein kinase DCLK2 (DCLK2, Homo sapiens, UniProt Q8N568)",100
"Misshapen-like kinase 1 (MINK1, Homo sapiens, UniProt Q8N4C8)",90.2
"Dual specificity mitogen-activated protein kinase kinase 1 (MAP2K1, Homo sapiens, UniProt Q02750)",95.4
"Ribosomal protein S6 kinase alpha-4 (RPS6KA4, Homo sapiens, UniProt O75676)",92.1
"Serine/threonine-protein kinase MARK2 (MARK2, Homo sapiens, UniProt Q7KZI7)",116
"Dual specificity protein kinase CLK3 (CLK3, Homo sapiens, UniProt P49761)",76.3
"Dual specificity protein kinase CLK4 (CLK4, Homo sapiens, UniProt Q9HAZ1)",90
"MAP/microtubule affinity-regulating kinase 4 (MARK4, Homo sapiens, UniProt Q96L34)",86.8
"Mitogen-activated protein kinase 1 (MAPK1, Homo sapiens, UniProt P28482)",107
"Tyrosine-protein kinase TXK (TXK, Homo sapiens, UniProt P42681)",96.8
"Mitogen-activated protein kinase 14 (MAPK14, Homo sapiens, UniProt Q16539)",99.3
"Serine/threonine-protein kinase PAK 3 (PAK3, Homo sapiens, UniProt O75914)",92.9
"RAC-beta serine/threonine-protein kinase (AKT2, Homo sapiens, UniProt P31751)",101
"Discoidin domain-containing receptor 2 (DDR2, Homo sapiens, UniProt Q16832)",102
"Cyclin-dependent kinase 9, with cyclin K (CDK9, Homo sapiens, UniProt P50750)",105

# Series 2
# Cell line: HaCaT
# Concentration: 100 µM
# Time: 18 h
SMILES,viability [%]
OC(CCN1CCCCC1)(c1ccccc1)C1C[C@@H]2C=C[C@H]1C2 (some centres unmarked),66.9
CC(C)(C)c1ccc(C(O)CCCN2CCC(C(O)(c3ccccc3)c3ccccc3)CC2)cc1 (centres unmarked),25.7
C[C@H]1CC[C@@]2(O)C(C)(C)[C@@H]3CC[C@@]2(C)[C@H]1C3,39.8
CC(C)NCC(O)c1ccc(O)c(O)c1 (centres unmarked),176
CCCNC(C)C(=O)Nc1ccccc1C (centres unmarked),110
Nc1nc(CC(=O)Nc2ccc(CCNC[C@H](O)c3ccccc3)cc2)cs1,100
CC(C)C(=O)c1c(C(C)C)nn2ccccc12,82.8
C[C@]12CC[C@@H]3c4ccc(O)cc4CC[C@H]3[C@@H]1CC[C@@H]2O,77.6
CCCCC(CC)COC(=O)CC(C(=O)OCC(CC)CCCC)S(=O)(=O)O (centres unmarked),38.2

# Series 3
# Species: mouse
# Matrix: microsomes or S9
# Concentration: 2 µM
# Time: 0.5 h
Structure (SMILES),remaining compound [%]
CCCc1cc(NC(=O)c2ccccc2-n2ccnn2)n[nH]1,> 100
CCCNc1ccc2ncc(-c3ccc4[nH]ncc4c3)n2n1,0.313
CC(C)(C)OC(=O)N1CCC(n2cc(-c3cnc(N)c(-c4nc5ccccc5o4)c3)c3ccccc32)CC1,> 100
Nc1ccc(C(=O)NC2CCc3ccccc32)cc1 (centres unmarked),58.1
CCOc1ccc(-c2[nH]c3[nH]c(=O)[nH]c(=O)c3c2-c2ccc(OC)cc2)cc1OC,74.3
Clc1ccc(-c2noc(-c3ccc(Nc4ccc5c(c4)OCCO5)nn3)n2)cc1,43.2
CC1(C)CC(S(=O)(=O)CC2(C)CC(C3CCCCC3)=NO2)=NO1 (centres unmarked),25.3
CCOC(=O)N1CCN(C(=O)c2ccc(NCCc3ccc(Cl)cc3)c(S(=O)(=O)Nc3ccc(OCC)cc3)c2)CC1,3.81

# Series 4
# SMILES: CCCCN(CCCC)C(=O)CN1C[C@H](c2cc(OC)c3c(c2)OCO3)[C@@H](C(=O)O)[C@@H]1CC(C)(C)CCC
# Observed: cell-free assay
# Technique: competition with immobilised ligand
# Concentration: 1 µM
target,remaining binding
"Cyclin-dependent kinase-like 2 (CDKL2, Homo sapiens, UniProt Q92772)",100%
"RAC-gamma serine/threonine-protein kinase (AKT3, Homo sapiens, UniProt Q9Y243)",100%
"Non-receptor tyrosine-protein kinase TYK2, JH1 (TYK2, Homo sapiens, UniProt P29597)",100%
"Phosphatidylinositol 4,5-bisphosphate 3-kinase catalytic subunit alpha isoform (PIK3CA, Homo sapiens, UniProt P42336, Q546K)",67.3%
"Ribosomal protein S6 kinase alpha-6, N-terminal kinase domain (RPS6KA6, Homo sapiens, UniProt Q9UK32)",76.4%
"Ephrin type-A receptor 8 (EPHA8, Homo sapiens, UniProt P29322)",100%
"Tyrosine-protein kinase ABL1, phosphorylated (ABL1, Homo sapiens, UniProt P00519, H396P)",96.1%

# Series 5
# Target: His6 tag
# Technique: AlphaScreen counter screen
# Concentration: concentration not given
Compound,inhibition [%]
COC(=O)c1sc2nc[nH]c(=O)c2c1C,4.35
CCC(Sc1ccc2nnc(-c3ccc(OC)c(OC)c3)n2n1)C(=O)O (centres unmarked),-9.85
Cn1cnc2c(F)c(Nc3ccc(Br)cc3Cl)c(C(=O)NOCCO)cc21,7.4
COc1ccc(CNC(=O)c2n[nH]c3ccccc23)cn1,2.35
O=C(Nc1ccc(O)c(-c2nc3ccccc3s2)c1)c1ccco1,7.5
CCN1CCN(c2ccc(Nc3cc(N(C)C(=O)Nc4c(Cl)c(OC)cc(OC)c4Cl)ncn3)cc2)CC1,11
C[C@H](Nc1ncnc2nc[nH]c12)c1cc2cccc(Cl)c2c(=O)n1-c1ccccc1,9.75

# A few entries again (series 1):
target,remaining activity [%]
"Misshapen-like kinase 1 (MINK1, Homo sapiens, UniProt Q8N4C8)",90.2
"Hepatocyte growth factor receptor (MET, Homo sapiens, UniProt P08581)",88.7
"Serine/threonine-protein kinase PAK 3 (PAK3, Homo sapiens, UniProt O75914)",92.9
"Vascular endothelial growth factor receptor 2 (KDR, Homo sapiens, UniProt P35968)",78.1
